Assay results gathered from unrelated publications.
Parts stem from different laboratories: compare values within a part only. “And” joins repeats or separate records; there may be more than shown.
Chain of UniProt P08908 (whole entry, looked up): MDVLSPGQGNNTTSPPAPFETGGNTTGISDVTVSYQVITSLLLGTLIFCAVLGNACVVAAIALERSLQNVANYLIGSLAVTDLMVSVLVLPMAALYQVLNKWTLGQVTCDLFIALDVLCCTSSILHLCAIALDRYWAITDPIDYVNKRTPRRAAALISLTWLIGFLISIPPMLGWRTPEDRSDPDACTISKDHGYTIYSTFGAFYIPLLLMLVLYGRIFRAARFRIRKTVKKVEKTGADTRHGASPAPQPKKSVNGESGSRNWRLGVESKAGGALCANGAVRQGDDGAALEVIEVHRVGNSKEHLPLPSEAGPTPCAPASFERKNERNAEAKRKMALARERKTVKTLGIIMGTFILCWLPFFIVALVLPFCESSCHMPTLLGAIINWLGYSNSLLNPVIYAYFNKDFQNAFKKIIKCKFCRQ
Chain of UniProt P28222 (whole entry, looked up): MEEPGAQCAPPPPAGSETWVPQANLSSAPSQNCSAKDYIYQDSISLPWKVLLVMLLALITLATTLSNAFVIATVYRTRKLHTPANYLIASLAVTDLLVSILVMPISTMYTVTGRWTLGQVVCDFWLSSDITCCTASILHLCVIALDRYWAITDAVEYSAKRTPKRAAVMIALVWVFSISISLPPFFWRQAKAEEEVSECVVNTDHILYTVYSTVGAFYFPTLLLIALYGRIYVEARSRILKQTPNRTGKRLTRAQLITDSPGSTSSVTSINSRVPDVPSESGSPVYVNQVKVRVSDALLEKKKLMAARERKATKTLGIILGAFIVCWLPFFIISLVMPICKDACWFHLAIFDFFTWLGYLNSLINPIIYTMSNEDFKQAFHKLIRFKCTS

Study 1 — cell line: HEK-293T-ACE2-TMPRSS2; method: cell count; tested at: concentration not given
With `CN(Cc1cccc2cnccc12)S(=O)(=O)NCc1ccccc1` the viability was 109%.
`Cc1cc(C(=O)N2C[C@@H](CO)[C@H](N(C)C)C2)on1` has a viability of 116%.
For `CCC1Oc2ccc(S(=O)(=O)N3CCN(C(=O)c4cc5ccccc5oc4=O)CC3)cc2NC1=O` (stereo not drawn), the viability was 69%.
With `NC(=O)c1snc(C(=O)N(Cc2ccccc2)C2CCN(Cc3ccccc3)CC2)c1N` the viability was 74%.

Other studies, line by line
The inhibition of `CN(C)[C@@H]1CCN(c2cc(-c3ccccc3)nc3ccnn23)C1` is reported as 64.8% (5-hydroxytryptamine receptor 1A (HTR1A, Homo sapiens, UniProt P08908); cell-free assay; 10 µM).
For `COc1ccc(C(CN(C)C)C2(O)CCCCC2)cc1` (stereo not drawn), the nuclei count was -0.422 z-score and 3.81 z-score (mouse MPNST tumor cells; high-content nuclear imaging, measured: cell number; 10 µM, 12 h, mean of 2 replicates; relative to: plate mean, higher = more cells).
`Cc1cc(C)nc(N=C(N)NCCc2cnc[nH]2)n1` gave a remaining compound of > 99% (human, microsomes or S9; 2 µM, 0.5 h).
`CNC(=N)NCCC[C@H](NC(=O)[C@H](CC(C)C)NC(=O)NNC(=O)[C@H](Cc1ccccc1)NC(=O)[C@H](CO)NC(=O)[C@H](CC(N)=O)NC(=O)[C@@H](Cc1cccnc1)NC(=O)[C@H](N)Cc1ccc(O)cc1)C(=O)NCC(N)=O` gave an inhibition of 31% (5-hydroxytryptamine receptor 1B (HTR1B, Homo sapiens, UniProt P28222); ligand displacement, radioligand; 10 µM).
With `C=CCN1CC[C@]23c4c5ccc(O)c4O[C@H]2C(=O)CC[C@@]3(O)[C@H]1C5` the nuclei count was 1.34 z-score (mouse MPNST tumor cells; high-content nuclear imaging, measured: cell number; 10 µM, 12 h, mean of 2 replicates; relative to: plate mean, higher = more cells).

Repeated from above (other studies, line by line):
`CNC(=N)NCCC[C@H](NC(=O)[C@H](CC(C)C)NC(=O)NNC(=O)[C@H](Cc1ccccc1)NC(=O)[C@H](CO)NC(=O)[C@H](CC(N)=O)NC(=O)[C@@H](Cc1cccnc1)NC(=O)[C@H](N)Cc1ccc(O)cc1)C(=O)NCC(N)=O` gave an inhibition of 31% (5-hydroxytryptamine receptor 1B (HTR1B, Homo sapiens, UniProt P28222); ligand displacement, radioligand; 10 µM).
